Measurements pooled from the literature.
Each numbered part is a random draw from the data of one study; scales do not carry over between parts.
Chain of UniProt Q9Y2X8 (whole entry, looked up): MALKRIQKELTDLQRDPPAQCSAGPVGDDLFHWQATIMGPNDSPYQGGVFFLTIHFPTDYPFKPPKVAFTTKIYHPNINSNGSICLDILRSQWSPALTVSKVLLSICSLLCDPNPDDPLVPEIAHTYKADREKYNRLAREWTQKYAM

Set 1
Target: Hepatocyte nuclear factor 3-beta, forkhead domain (FOXA2, Homo sapiens, UniProt Q9Y261, residues 142-269)
Method: protein-binding microarray
Form: double-stranded DNA, one strand shown
Matrix: in vitro
Tested at: not given
Setting: k-mer, scored over probes, only values ≥0.25
Direction: higher = stronger binding
Residues (chain): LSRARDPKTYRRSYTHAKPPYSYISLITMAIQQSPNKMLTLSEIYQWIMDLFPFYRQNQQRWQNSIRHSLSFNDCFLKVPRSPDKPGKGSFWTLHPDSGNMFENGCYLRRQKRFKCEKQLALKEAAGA
Oligonucleotide	E-score
AACAAATT	0.269
AGATACCA	0.299
ATTTCCTA	0.348
AATGATTA	0.334
ATTGGTTA	0.293
TAGTAACA	0.351
CTTATCCA	0.258
ATGTTGTG	0.309

Set 2
Target: RING finger protein unkempt homolog, zinc fingers 1-6, GST-SBP tag (UNK, Homo sapiens, UniProt Q9C0B0, residues 30-357)
Method: RNA Bind-n-Seq
Form: RNA
Matrix: in vitro
Tested at: not given
Setting: RNA with constant flanks, human and mouse sites, ends assumed
Relative to: input RNA pool
Direction: higher = stronger binding
Construct (chain): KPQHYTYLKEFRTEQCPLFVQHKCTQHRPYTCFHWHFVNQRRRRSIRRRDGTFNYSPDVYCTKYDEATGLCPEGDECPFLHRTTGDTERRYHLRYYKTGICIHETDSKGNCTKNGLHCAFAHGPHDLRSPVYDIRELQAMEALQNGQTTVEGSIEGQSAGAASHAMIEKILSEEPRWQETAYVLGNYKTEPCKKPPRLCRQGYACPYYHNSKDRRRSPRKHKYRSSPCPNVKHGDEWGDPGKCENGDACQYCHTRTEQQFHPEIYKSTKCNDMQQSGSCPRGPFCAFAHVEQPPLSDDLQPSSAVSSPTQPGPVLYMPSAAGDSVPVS
Oligonucleotide	bound/input enrichment [ratio]
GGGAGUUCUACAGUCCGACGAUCCCAGCAUAACUAUUGAGAAUAUUAGCACCAGGAACAUGUUCCACAGUAACAGCAGGAAAUAUAGCCGGAUCGCCAAGCUUUGUUGGAAGUACUUUAAAUGUACUCUGUUCUGGUAUUAUACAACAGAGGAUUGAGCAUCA	1.42
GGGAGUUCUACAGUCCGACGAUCACAUCCUUGGCGUGGCACCCAACUCACCCCAGCACUGUGGCUGUGGGUUCCAAAGGGGGAGAUAUCAUGCUCUGGAAUUUUGGCAUCAAGGACAAACCCACCUUCAUCAAAGGGAUUGGACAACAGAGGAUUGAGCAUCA	0.127
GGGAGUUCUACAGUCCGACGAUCCGAAGCUCGCGGGCGCUGGCGGGACAGGCGCGUGAGGCCACAACACAUGCGUGUAUCUUGCUUGGGCUAUCUUCCCUGCUCUGCCACGCCGGGUCUGGAGAAGGGGUUUCAGCCCCAGGACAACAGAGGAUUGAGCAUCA	0.0934
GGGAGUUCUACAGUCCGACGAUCAAUGUGGAACUAAGUUCGCUGGCCCGGCUUCCCAGCUUAAAUAAACUUCGAAAAUUGGAGCUUAGUGAUAAUAUAAUUUCUGGAGGCUUGGAAGUCCUGGCAGAGAAAUGUCCAAAUCUUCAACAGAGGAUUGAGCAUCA	1.96
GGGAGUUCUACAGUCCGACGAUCCUGAGCCAGCUAGACCAGCGCUUUUCAGAGAAUUACUCUACCCAUAGCAGUCCUCUGGAUAGUAUUUAUUACCACCGAGAGCUUCUCUGCUAUUCUCUGGAUGGACUUCGUGUAGAUCUACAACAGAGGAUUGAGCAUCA	0.458
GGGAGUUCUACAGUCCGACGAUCAAUGUUACUUCUAUGAUAAACUUAAAGACCAUUGCUUCAUCAGCAGAUCCUAAAAAUGUUAGUAUACCAUCUUCUGAAGCUUUAUCUUCGGAUCCUUCCUACAACAAAGAAAAACACAUUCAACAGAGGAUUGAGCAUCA	0.635
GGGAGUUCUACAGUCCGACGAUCAAAAAAAUGACUCAAGCCGUGUAUUUUUUAUAUUUUGAUAUACUCACUUGUGAAUUAAAGAAUAGGACUAUCACUGAUAAAGUAUCAAAAUAGUAAGAGUGGCAACAUUUUGAAAAUAUUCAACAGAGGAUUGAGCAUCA	0.713
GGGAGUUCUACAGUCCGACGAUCCUUAUGACCCUCGUGGGUCAUGAUAACUGGGUACGUGGAGUUCUGUUCCAUUCUGGGGGGAAGUUUAUUUUGAGUUGUGCUGAUGACAAGACCCUACGCGUAUGGGAUUACAAGAACAAGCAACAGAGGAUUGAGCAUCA	0.351

Single results of other studies
HLA class I histocompatibility antigen, A alpha chain allele A*25:01: HLA class I histocompatibility antigen, A alpha chain, allele A*25:01 (Homo sapiens, UniProt P04439)
B1: MARCHF1 RING domain (UniProt Q8TCQ1); chain TAPRSQSRLSVCPSTQDICRICHCEGDEESPLITPCRCTGTLRFVHQSCLHQWIKSSDTRCCELCKYDFIMETKLKPLRKWE
Sequence	target	assay	test system	setting	how to read	endpoint	value
YILGFAIPI	HLA class I histocompatibility antigen, A alpha chain allele A*25:01	peptide-MHC binding	peptide	concentration not given		binding	inactive
B1 (MARCHF1 RING domain)	UBE2D4 UBC core domain (UniProt Q9Y2X8)	yeast two-hybrid	yeast	mostly zero background	relative to: not given, higher = stronger interaction	lacZ reporter activity	0
WLGHPFTPV	HLA class I histocompatibility antigen, A alpha chain allele A*25:01	peptide-MHC binding	peptide	concentration not given		binding	inactive

Repeated from above (set 2):
Oligonucleotide	bound/input enrichment [ratio]
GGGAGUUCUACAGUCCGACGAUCAAUGUGGAACUAAGUUCGCUGGCCCGGCUUCCCAGCUUAAAUAAACUUCGAAAAUUGGAGCUUAGUGAUAAUAUAAUUUCUGGAGGCUUGGAAGUCCUGGCAGAGAAAUGUCCAAAUCUUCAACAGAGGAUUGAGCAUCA	1.96
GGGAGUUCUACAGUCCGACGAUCCUGAGCCAGCUAGACCAGCGCUUUUCAGAGAAUUACUCUACCCAUAGCAGUCCUCUGGAUAGUAUUUAUUACCACCGAGAGCUUCUCUGCUAUUCUCUGGAUGGACUUCGUGUAGAUCUACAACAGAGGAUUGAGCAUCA	0.458
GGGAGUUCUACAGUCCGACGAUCACAUCCUUGGCGUGGCACCCAACUCACCCCAGCACUGUGGCUGUGGGUUCCAAAGGGGGAGAUAUCAUGCUCUGGAAUUUUGGCAUCAAGGACAAACCCACCUUCAUCAAAGGGAUUGGACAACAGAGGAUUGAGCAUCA	0.127
